Results collected from several papers.
Numbered parts are unrelated; each lists some results of a single study. Several values in a cell are separate wells, animals, samples, runs or records.

Series 1 — cell line: A-375; concentration: 100 µM; time: 36 h; quantity: viability
CN[C@@H]1[C@@H](O[C@H]2O[C@H](CO)[C@@H](N)[C@H](O)[C@H]2O)O[C@H]2C[C@@H](N)[C@@H](O[C@H]3[C@H](O)[C@@H](O)[C@H](N)C[C@@H]3N)O[C@@H]2[C@@H]1O: 102%
CCn1cc(C(=O)O)c(=O)c2cc(F)c(N3CCNCC3)nc21: 26.4% and 23.8%
CN[C@@H]1[C@H](O[C@H]2[C@H](O[C@H]3[C@H](O)[C@@H](O)[C@H](NC(=N)N)[C@@H](O)[C@@H]3NC(=N)N)O[C@@H](C)[C@]2(O)CO)O[C@@H](CO)[C@H](O)[C@H]1O: 111%

Series 2 — read-out: binding; method: competition with immobilised ligand; concentration: 0.1 µM; quantity: remaining binding
Target: Tyrosine-protein kinase ABL1, phosphorylated (ABL1, Homo sapiens, UniProt P00519, E255K)
Chain of UniProt P00519 (whole entry, unmodified, looked up): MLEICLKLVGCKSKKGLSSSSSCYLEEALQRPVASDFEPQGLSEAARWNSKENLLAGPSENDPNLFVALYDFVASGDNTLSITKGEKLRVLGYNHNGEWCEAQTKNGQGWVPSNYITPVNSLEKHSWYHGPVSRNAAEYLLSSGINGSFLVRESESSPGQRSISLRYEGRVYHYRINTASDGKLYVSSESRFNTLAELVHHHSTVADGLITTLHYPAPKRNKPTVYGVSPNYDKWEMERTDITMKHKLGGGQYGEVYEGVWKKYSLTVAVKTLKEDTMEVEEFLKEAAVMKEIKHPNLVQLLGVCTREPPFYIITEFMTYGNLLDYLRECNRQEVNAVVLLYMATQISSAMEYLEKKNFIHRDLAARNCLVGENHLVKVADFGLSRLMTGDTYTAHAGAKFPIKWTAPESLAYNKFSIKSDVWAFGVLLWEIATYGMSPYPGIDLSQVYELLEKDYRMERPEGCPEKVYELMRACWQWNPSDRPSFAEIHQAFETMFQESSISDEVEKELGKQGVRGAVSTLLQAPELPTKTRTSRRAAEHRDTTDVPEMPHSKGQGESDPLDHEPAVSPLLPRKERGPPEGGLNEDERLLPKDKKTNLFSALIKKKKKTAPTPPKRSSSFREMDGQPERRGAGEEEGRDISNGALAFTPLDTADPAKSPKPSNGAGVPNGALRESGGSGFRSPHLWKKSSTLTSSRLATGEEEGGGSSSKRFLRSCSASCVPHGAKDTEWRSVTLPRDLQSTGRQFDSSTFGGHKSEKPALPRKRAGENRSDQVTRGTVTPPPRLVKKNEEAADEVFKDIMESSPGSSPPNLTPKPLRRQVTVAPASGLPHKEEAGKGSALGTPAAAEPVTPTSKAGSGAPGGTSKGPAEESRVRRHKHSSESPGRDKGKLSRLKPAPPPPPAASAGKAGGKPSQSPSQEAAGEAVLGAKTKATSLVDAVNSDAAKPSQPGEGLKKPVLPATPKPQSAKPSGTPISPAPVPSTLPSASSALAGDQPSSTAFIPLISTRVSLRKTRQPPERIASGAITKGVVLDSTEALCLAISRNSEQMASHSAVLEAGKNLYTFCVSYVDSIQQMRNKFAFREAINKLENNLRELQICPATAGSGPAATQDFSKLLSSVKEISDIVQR
C[C@@H](NC(=O)Nc1cc2[nH]ncc2c(CO)n1)c1ccccc1: 83.4%
Cc1ccc(-c2cnc([C@@]3(O)CC[C@H](C(=O)O)C(C)(C)C3)s2)cc1Nc1cccc(C(F)(F)F)n1: 80.8%
Cc1cc(Nc2nccc(C)n2)cc(-c2cnc([C@@]3(O)CC[C@H](C(=O)O)C(C)(C)C3)s2)c1: 55.1%

Series 3 — cell line: mouse MPNST tumor cells; method: high-content nuclear imaging; measured: cell number; concentration: 10 µM; time: 12 h; setting: mean of 2 replicates; baseline: plate mean; reading: higher = more cells; quantity: nuclei count
COc1cc(C(=O)OCCCN2CCCN(CCCOC(=O)c3cc(OC)c(OC)c(OC)c3)CC2)cc(OC)c1OC: -3.55 z-score
COc1ccc(Cl)cc1[C@]1(F)C(=O)Nc2cc(C(F)(F)F)ccc21: 2.88 z-score
CNC[C@H](O)c1cccc(O)c1: 1.38 z-score
CNC(=O)c1cccc(NC(=O)N2CCC(Oc3ccccc3Cl)CC2)c1: 0.733 z-score

Series 4 — organism: Sarcocystis neurona; read-out: parasite growth; concentration: 10 µM; setting: secondary screen; quantity: inhibition
O=C(O[C@@H]1Cc2c(O)cc(O)cc2O[C@@H]1c1cc(O)c(O)c(O)c1)c1cc(O)c(O)c(O)c1: -36.8%
Clc1ccc(COC(Cn2ccnc2)c2ccc(Cl)cc2Cl)c(Cl)c1 (centres unmarked): 55%
COc1c(N2C[C@@H]3CCCN[C@@H]3C2)c(F)cc2c(=O)c(C(=O)O)cn(C3CC3)c12: 21.1%
CC1(C)O[C@@H]2C[C@H]3[C@@H]4CCC5=CC(=O)C=C[C@]5(C)[C@@]4(F)[C@@H](O)C[C@]3(C)[C@]2(C(=O)CO)O1: -57.4%

A few entries again (series 2):
C[C@@H](NC(=O)Nc1cc2[nH]ncc2c(CO)n1)c1ccccc1: 83.4%
Cc1cc(Nc2nccc(C)n2)cc(-c2cnc([C@@]3(O)CC[C@H](C(=O)O)C(C)(C)C3)s2)c1: 55.1%
